# Measurements collected from several papers.
# ± gives the spread as reported.
# Organism: Staphylococcus aureus
Substance,test,system,setting,MIC
CC1(C)S[C@@H]2[C@H](NC(=O)[C@H](N)c3ccc(O)cc3)C(=O)N2[C@H]1C(=O)O,microbial growth,ATCC25923,,≤ 7.81 µg/mL
CC[C@H](C)[C@H](NC(=O)[C@H](CCCNC(=N)N)NC(=O)CNC(=O)[C@H](CC(C)C)NC(=O)[C@H](Cc1ccccc1)NC(=O)[C@H](CCC(N)=O)NC(=O)[C@H](Cc1ccccc1)NC(=O)[C@@H](N)C(C)C)C(=O)N[C@H](C(=O)N[C@@H](Cc1c[nH]cn1)C(=O)N[C@@H](Cc1c[nH]cn1)C(=O)N[C@H](C(=O)NCC(=O)N[C@@H](CC(N)=O)C(=O)N[C@@H](Cc1ccccc1)C(=O)N[C@H](C(=O)N[C@@H](Cc1c[nH]cn1)C(=O)NCC(=O)N[C@@H](Cc1ccccc1)C(=O)N[C@@H](CO)C(=O)N[C@@H](Cc1c[nH]cn1)C(=O)N[C@H](C(=O)N[C@@H](Cc1ccccc1)C(=O)O)C(C)C)C(C)C)C(C)C)[C@@H](C)CC,broth microdilution,USA300 LAC,37 °C,> 100 µM
CC[C@H](C)[C@H](NC(=O)CNC(=O)[C@H](CCCNC(=N)N)NC(=O)[C@H](Cc1ccccc1)NC(=O)[C@@H](NC(=O)[C@H](Cc1c[nH]cn1)NC(=O)[C@H](Cc1c[nH]cn1)NC(=O)[C@H](Cc1ccccc1)NC(=O)[C@@H](N)Cc1ccccc1)[C@@H](C)CC)C(=O)N[C@H](C(=O)N[C@@H](Cc1c[nH]cn1)C(=O)N[C@H](C(=O)NCC(=O)N[C@@H](CCCCN)C(=O)N[C@H](C(=O)N[C@@H](C)C(=O)N[C@@H](Cc1c[nH]cn1)C(=O)N[C@@H](CCCNC(=N)N)C(=O)N[C@@H](CC(C)C)C(=O)N[C@H](C(=O)N[C@H](C(=O)NCC(N)=O)[C@@H](C)O)C(C)C)[C@@H](C)O)C(C)C)C(C)C,broth microdilution,"MRSA clinical isolate, brain heart infusion","18 h, 37 °C",3.1 µg/mL
CC[C@H](C)[C@H](NC(=O)[C@H](CC(=O)O)NC(=O)[C@H](Cc1ccccc1)NC(=O)[C@H](CC(C)C)NC(=O)CN)C(=O)N[C@H](C(=O)N[C@@H](CCCCN)C(=O)N[C@@H](CCCCN)C(=O)N[C@H](C(=O)N[C@H](C(=O)NCC(=O)N[C@@H](C)C(=O)N[C@@H](CC(C)C)C(=O)NCC(N)=O)C(C)C)C(C)C)C(C)C,,"ATCC 43300, CAMHB","18 h, 37 °C",> 23 µM
CC[C@H](C)[C@H](NC(=O)[C@H](Cc1ccc(O)cc1)NC(=O)[C@H](CCCCN)NC(=O)[C@@H](N)CS)C(=O)N[C@@H](CC(C)C)C(=O)N[C@@H](CC(C)C)C(=O)N[C@@H](CC(C)C)C(=O)N[C@@H](CCCNC(=N)N)C(=O)N[C@@H](CCCNC(=N)N)C(=O)N[C@@H](CCC(N)=O)C(=O)N[C@@H](CC(C)C)C(=O)N[C@@H](C)C(=O)N[C@@H](CCCNC(=N)N)C(=O)N[C@@H](C)C(=O)N[C@@H](Cc1c[nH]c2ccccc12)C(=O)N[C@@H](CCCNC(=N)N)C(=O)N[C@@H](CCCNC(=N)N)C(=O)NCC(=O)N[C@@H](CC(C)C)C(=O)N[C@@H](CCCNC(=N)N)C(=O)O,broth microdilution,media-adapted JE2,18 to 20 h,24 µg/mL
CN[C@H](CC(C)C)C(=O)N[C@H]1C(=O)N[C@@H](CC(N)=O)C(=O)N[C@H]2C(=O)N[C@H]3C(=O)N[C@H](C(=O)N[C@H](C(=O)O)c4cc(O)cc(O)c4-c4cc3ccc4O)[C@H](O)c3ccc(c(Cl)c3)Oc3cc2cc(c3O[C@@H]2O[C@H](CO)[C@@H](O)[C@H](O)[C@H]2O[C@H]2C[C@](C)(N)[C@H](O)[C@H](C)O2)Oc2ccc(cc2Cl)[C@H]1O,,MSSA ATCC 9144,20 h,1 to 2 µg/mL
CC[C@H](C)[C@H](NC(=O)[C@H](CCCNC(=N)N)NC(=O)[C@H](CC(C)C)NC(=O)[C@H](CCC(N)=O)NC(=O)[C@H](CCCCN)NC(=O)[C@H](CC(C)C)NC(=O)[C@H](CC(C)C)NC(=O)[C@H](CC(C)C)NC(=O)[C@@H](NC(=O)[C@H](CCCCN)NC(=O)[C@H](CC(=O)O)NC(=O)[C@H](C)NC(=O)[C@@H](NC(=O)[C@H](CCCCN)NC(=O)[C@H](CCCCN)NC(=O)[C@H](CC(=O)O)NC(=O)[C@@H](NC(=O)[C@@H](N)Cc1c[nH]cn1)C(C)C)C(C)C)C(C)C)C(=O)N[C@@H](CCSC)C(=O)N[C@@H](CCCNC(=N)N)C(=O)N[C@@H](CC(C)C)C(=O)N[C@@H](CC(C)C)C(=O)N[C@H](C(=O)N[C@@H](CCCNC(=N)N)C(=O)N[C@@H](CC(C)C)C(=O)O)[C@@H](C)O,broth microdilution,USA300 LAC,37 °C,> 81 µM
CC(C)C[C@H](NC(=O)[C@H](C)NC(=O)CNC(=O)[C@@H](NC(=O)[C@H](CC(C)C)NC(=O)[C@H](CCCCN)NC(=O)[C@H](CCCCN)NC(=O)[C@H](CC(C)C)NC(=O)[C@H](CC(C)C)NC(=O)[C@H](CCCCN)NC(=O)[C@H](CC(C)C)NC(=O)[C@H](CC(C)C)NC(=O)[C@@H](N)CCCCN)C(C)C)C(=O)NCC(N)=O,,"ATCC 43300, CAMHB","18 h, 37 °C",5 µM
plantazolicin,,NRS384 USA300 CA-MRSA,"12 h, 37 °C",> 48 µM
CC(C)[C@H](NC(=O)[C@H](CCCCN)NC(=O)CNC(=O)CNC(=O)[C@H](CCC(N)=O)NC(=O)[C@H](CCCCN)NC(=O)CNC(=O)[C@H](CCCNC(=N)N)NC(=O)CNC(=O)[C@@H](N)CCCCN)C(=O)N[C@@H](CCCNC(=N)N)C(=O)N[C@@H](C)C(=O)N[C@@H](CCCCN)C(=O)N[C@@H](C)C(=O)N[C@@H](CCCCN)C(=O)N[C@H](C(=O)N[C@@H](CCCNC(=N)N)C(=O)N[C@@H](CO)C(=O)N[C@@H](CO)C(=O)O)[C@@H](C)O,broth microdilution,USA300 LAC,37 °C,> 84 µM
actinomycin Y4,broth microdilution,ATCC 6538,16 to 48 h,> 9.32 µg/mL
CC[C@H](C)[C@H](N)C(=O)N[C@@H](CCCCN)C(=O)N[C@@H](Cc1c[nH]c2ccccc12)C(=O)N[C@@H](CCCCN)C(=O)N[C@@H](CCCCN)C(=O)N[C@@H](CC(C)C)C(=O)N[C@@H](CC(C)C)C(=O)N[C@@H](CCCNC(=N)N)C(=O)N[C@@H](C)C(=O)N[C@@H](C)C(=O)N[C@@H](CCCCN)C(=O)N[C@@H](CCCNC(=N)N)C(=O)N[C@H](C(=O)N[C@@H](CC(C)C)C(N)=O)[C@@H](C)CC,broth microdilution,USA300 LAC,37 °C,6.2 µM
CC(C)=CCCC(C)CC1CC(=O)c2c(O)cc(O)cc2O1 (centres unmarked),broth microdilution,MRSA NRS70,,3.13 to 6.25 µg/mL
N=C(N)NCCC[C@H](NC(=O)[C@H](Cc1c[nH]cn1)NC(=O)[C@@H]1CCCN1C(=O)[C@H](CS)NC(=O)CN)C(=O)N[C@@H](CS)C(=O)O,broth microdilution,MTCC 96,37 °C,200 µg/mL
CC[C@H](C)[C@H](NC(=O)[C@H](CC(=O)O)NC(=O)[C@H](Cc1ccccc1)NC(=O)[C@H](CC(C)C)NC(=O)CN)C(=O)N[C@H](C(=O)N[C@@H](CCCCN)C(=O)N[C@@H](CCCCN)C(=O)N[C@H](C(=O)N[C@H](C(=O)NCC(=O)N[C@@H](C)C(=O)N[C@@H](CC(C)C)C(=O)N[C@@H](CCCCN)C(N)=O)C(C)C)C(C)C)C(C)C,,"SH1000 GFP-expressing, nutrient broth","20 h, 37 °C",33 µM
CC[C@H](C)[C@H](NC(=O)[C@H](CC(C)C)NC(=O)[C@@H]1CCCN1C(=O)[C@H](Cc1ccccc1)NC(=O)[C@H](CC(C)C)NC(=O)[C@@H](N)Cc1ccccc1)C(=O)N[C@H](C(=O)N[C@@H](CO)C(=O)N[C@@H](Cc1ccccc1)C(=O)N[C@@H](CC(C)C)C(=O)N[C@@H](CO)C(=O)N[C@@H](CCCCN)C(=O)N[C@H](C(=O)N[C@@H](CC(C)C)C(=O)O)C(C)C)[C@@H](C)O,broth microdilution,USA300 LAC,37 °C,50 µM
CC[C@H](C)[C@H](N)C(=O)N[C@@H](CC(N)=O)C(=O)N[C@@H](CC(C)C)C(=O)N[C@@H](CCCCN)C(=O)N[C@@H](C)C(=O)N[C@@H](CCCCN)C(=O)N[C@@H](C)C(=O)N[C@@H](C)C(=O)N[C@@H](CC(C)C)C(=O)N[C@@H](C)C(=O)N[C@@H](CCCCN)C(=O)N[C@@H](CCCCN)C(=O)N[C@@H](CC(C)C)C(=O)N[C@@H](CC(C)C)C(N)=O,broth microdilution,,,> 2000 µg/mL
CCCCCCCCCCCCCCc1cc(O)cc(O)c1,"microbial growth, broth dilution",USA300,drug-resistant strain,> 64 µg/mL
CC[C@H](C)[C@H](NC(=O)[C@H](CC(=O)O)NC(=O)[C@H](Cc1ccccc1)NC(=O)[C@H](CC(C)C)NC(=O)CN)C(=O)N[C@H](C(=O)N[C@@H](CCCCN)C(=O)N[C@@H](CCCCN)C(=O)N[C@H](C(=O)N[C@H](C(=O)N[C@@H](CCCCN)C(=O)N[C@@H](CC(C)C)C(=O)N[C@@H](CC(C)C)C(=O)N[C@@H](CCCCN)C(N)=O)C(C)C)C(C)C)C(C)C,,"SH1000 GFP-expressing, nutrient broth","20 h, 37 °C",50 µM
magainin 2,serial dilution,ATCC 25923,"24 h, 37 °C",20.6 ± 1.3 µg/mL

# Some of these lines once more:
Substance,test,system,setting,MIC
plantazolicin,,NRS384 USA300 CA-MRSA,"12 h, 37 °C",> 48 µM
CC[C@H](C)[C@H](NC(=O)CNC(=O)[C@H](CCCNC(=N)N)NC(=O)[C@H](Cc1ccccc1)NC(=O)[C@@H](NC(=O)[C@H](Cc1c[nH]cn1)NC(=O)[C@H](Cc1c[nH]cn1)NC(=O)[C@H](Cc1ccccc1)NC(=O)[C@@H](N)Cc1ccccc1)[C@@H](C)CC)C(=O)N[C@H](C(=O)N[C@@H](Cc1c[nH]cn1)C(=O)N[C@H](C(=O)NCC(=O)N[C@@H](CCCCN)C(=O)N[C@H](C(=O)N[C@@H](C)C(=O)N[C@@H](Cc1c[nH]cn1)C(=O)N[C@@H](CCCNC(=N)N)C(=O)N[C@@H](CC(C)C)C(=O)N[C@H](C(=O)N[C@H](C(=O)NCC(N)=O)[C@@H](C)O)C(C)C)[C@@H](C)O)C(C)C)C(C)C,broth microdilution,"MRSA clinical isolate, brain heart infusion","18 h, 37 °C",3.1 µg/mL
CC[C@H](C)[C@H](NC(=O)[C@H](CC(=O)O)NC(=O)[C@H](Cc1ccccc1)NC(=O)[C@H](CC(C)C)NC(=O)CN)C(=O)N[C@H](C(=O)N[C@@H](CCCCN)C(=O)N[C@@H](CCCCN)C(=O)N[C@H](C(=O)N[C@H](C(=O)NCC(=O)N[C@@H](C)C(=O)N[C@@H](CC(C)C)C(=O)NCC(N)=O)C(C)C)C(C)C)C(C)C,,"ATCC 43300, CAMHB","18 h, 37 °C",> 23 µM
